Experimental data gathered from unrelated publications.
Each numbered part is a random draw from the data of one study; scales do not carry over between parts. Changes are numbered by the printed parent chain.
Sequence of UniProt P35354 (whole entry, looked up): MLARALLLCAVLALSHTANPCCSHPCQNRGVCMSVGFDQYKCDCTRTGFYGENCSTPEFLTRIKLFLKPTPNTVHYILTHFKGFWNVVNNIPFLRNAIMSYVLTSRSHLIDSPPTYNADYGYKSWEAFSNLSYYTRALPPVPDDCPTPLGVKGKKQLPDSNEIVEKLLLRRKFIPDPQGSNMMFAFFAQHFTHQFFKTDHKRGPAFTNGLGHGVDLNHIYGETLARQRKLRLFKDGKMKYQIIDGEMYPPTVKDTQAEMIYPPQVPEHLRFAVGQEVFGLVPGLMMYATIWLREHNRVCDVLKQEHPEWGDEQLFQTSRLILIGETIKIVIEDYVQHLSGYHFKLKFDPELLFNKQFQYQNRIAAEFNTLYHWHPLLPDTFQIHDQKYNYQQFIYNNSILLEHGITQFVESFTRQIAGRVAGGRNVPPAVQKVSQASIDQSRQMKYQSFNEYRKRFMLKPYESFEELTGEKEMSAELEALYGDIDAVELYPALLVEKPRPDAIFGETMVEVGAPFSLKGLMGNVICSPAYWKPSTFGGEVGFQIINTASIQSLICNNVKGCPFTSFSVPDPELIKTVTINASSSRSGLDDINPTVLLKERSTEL
Sequence of UniProt Q01959 (whole entry, looked up): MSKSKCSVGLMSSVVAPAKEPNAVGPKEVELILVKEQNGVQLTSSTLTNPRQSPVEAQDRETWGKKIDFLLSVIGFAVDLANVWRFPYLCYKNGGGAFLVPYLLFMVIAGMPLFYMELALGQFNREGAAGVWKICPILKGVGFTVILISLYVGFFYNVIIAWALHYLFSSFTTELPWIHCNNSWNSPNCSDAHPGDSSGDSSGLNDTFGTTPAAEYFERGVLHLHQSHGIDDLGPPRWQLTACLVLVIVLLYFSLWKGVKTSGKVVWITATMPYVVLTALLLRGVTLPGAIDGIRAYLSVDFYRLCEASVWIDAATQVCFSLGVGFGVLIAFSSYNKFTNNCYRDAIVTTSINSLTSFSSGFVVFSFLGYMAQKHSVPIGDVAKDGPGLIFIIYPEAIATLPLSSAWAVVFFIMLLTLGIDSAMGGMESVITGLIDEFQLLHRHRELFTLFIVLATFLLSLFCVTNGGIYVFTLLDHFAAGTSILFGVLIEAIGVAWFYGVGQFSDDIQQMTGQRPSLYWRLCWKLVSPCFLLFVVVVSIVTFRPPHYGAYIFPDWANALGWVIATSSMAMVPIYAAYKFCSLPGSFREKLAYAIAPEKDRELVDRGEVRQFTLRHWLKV
Sequence of UniProt Q6XUX3 (whole entry, looked up): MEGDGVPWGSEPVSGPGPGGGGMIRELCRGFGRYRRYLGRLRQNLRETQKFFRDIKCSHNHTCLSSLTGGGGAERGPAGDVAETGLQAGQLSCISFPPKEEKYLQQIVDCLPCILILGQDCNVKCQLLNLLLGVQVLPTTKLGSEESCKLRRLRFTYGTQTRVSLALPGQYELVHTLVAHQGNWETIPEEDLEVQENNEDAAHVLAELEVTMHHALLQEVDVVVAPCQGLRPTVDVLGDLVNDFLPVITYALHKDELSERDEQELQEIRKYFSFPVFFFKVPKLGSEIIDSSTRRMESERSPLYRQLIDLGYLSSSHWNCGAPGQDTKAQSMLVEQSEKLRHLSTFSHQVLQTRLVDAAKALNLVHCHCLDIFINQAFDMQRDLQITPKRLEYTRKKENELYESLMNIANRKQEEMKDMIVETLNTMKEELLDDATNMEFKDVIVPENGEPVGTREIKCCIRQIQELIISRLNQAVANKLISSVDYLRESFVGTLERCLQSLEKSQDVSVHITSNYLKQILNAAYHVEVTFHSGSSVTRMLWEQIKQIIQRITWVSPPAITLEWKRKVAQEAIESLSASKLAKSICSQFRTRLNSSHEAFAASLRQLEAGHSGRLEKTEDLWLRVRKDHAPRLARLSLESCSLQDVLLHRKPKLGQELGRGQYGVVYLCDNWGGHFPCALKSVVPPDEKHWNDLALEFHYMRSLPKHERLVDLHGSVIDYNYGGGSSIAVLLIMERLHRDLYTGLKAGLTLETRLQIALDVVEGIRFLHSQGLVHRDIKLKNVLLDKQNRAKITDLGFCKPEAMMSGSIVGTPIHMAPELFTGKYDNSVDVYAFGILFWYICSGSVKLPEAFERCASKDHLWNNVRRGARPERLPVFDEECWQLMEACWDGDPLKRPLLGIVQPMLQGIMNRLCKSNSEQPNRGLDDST
Sequence of UniProt P36894 (whole entry, looked up): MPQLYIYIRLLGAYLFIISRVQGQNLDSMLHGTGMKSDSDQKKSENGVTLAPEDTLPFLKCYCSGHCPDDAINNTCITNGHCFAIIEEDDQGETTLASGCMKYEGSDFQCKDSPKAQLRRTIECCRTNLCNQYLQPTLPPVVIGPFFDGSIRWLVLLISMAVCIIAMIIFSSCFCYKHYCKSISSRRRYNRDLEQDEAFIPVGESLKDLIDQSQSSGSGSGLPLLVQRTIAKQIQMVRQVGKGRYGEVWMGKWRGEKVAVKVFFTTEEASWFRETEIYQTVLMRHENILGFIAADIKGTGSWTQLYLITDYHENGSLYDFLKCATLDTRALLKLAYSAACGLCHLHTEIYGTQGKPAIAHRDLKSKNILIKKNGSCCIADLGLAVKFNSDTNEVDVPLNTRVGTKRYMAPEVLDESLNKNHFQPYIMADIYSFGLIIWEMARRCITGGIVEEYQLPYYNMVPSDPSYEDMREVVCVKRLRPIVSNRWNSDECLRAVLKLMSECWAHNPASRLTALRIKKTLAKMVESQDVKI
Sequence of UniProt P03372 (whole entry, looked up): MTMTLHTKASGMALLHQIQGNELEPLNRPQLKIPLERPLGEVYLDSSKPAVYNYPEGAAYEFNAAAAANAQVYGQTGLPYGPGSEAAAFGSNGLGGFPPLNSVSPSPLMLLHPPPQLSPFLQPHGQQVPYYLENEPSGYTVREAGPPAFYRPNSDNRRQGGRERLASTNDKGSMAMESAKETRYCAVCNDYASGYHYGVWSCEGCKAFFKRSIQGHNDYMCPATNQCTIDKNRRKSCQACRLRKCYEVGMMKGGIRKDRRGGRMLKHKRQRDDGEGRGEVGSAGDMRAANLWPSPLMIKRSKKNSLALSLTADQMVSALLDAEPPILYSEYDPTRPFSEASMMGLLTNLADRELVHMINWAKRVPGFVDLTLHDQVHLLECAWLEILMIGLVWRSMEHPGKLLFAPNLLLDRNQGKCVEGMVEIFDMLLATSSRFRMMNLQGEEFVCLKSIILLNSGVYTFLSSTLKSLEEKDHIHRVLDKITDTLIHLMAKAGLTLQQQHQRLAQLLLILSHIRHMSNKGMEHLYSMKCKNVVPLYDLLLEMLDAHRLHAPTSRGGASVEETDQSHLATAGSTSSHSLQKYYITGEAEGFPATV
Sequence of UniProt P46734 (whole entry, looked up): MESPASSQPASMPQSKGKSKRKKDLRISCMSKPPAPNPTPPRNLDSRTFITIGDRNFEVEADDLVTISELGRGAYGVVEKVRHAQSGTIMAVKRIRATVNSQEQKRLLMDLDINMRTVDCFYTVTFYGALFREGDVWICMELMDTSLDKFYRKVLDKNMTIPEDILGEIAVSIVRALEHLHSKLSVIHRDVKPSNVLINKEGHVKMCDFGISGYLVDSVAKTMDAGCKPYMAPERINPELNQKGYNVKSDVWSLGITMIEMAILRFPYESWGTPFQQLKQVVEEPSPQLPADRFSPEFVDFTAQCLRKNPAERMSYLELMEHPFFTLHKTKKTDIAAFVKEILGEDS
Sequence of UniProt Q8N752 (whole entry, looked up): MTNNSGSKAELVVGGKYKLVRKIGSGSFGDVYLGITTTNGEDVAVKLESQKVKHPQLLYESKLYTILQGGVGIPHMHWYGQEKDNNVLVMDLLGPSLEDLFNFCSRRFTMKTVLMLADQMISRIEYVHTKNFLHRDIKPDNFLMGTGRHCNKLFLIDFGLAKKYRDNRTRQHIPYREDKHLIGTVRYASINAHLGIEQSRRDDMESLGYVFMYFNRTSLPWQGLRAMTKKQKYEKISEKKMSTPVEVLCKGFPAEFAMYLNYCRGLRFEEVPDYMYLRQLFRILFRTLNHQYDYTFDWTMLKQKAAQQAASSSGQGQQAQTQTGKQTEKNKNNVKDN
Sequence of UniProt P42336 (whole entry, unmodified, looked up): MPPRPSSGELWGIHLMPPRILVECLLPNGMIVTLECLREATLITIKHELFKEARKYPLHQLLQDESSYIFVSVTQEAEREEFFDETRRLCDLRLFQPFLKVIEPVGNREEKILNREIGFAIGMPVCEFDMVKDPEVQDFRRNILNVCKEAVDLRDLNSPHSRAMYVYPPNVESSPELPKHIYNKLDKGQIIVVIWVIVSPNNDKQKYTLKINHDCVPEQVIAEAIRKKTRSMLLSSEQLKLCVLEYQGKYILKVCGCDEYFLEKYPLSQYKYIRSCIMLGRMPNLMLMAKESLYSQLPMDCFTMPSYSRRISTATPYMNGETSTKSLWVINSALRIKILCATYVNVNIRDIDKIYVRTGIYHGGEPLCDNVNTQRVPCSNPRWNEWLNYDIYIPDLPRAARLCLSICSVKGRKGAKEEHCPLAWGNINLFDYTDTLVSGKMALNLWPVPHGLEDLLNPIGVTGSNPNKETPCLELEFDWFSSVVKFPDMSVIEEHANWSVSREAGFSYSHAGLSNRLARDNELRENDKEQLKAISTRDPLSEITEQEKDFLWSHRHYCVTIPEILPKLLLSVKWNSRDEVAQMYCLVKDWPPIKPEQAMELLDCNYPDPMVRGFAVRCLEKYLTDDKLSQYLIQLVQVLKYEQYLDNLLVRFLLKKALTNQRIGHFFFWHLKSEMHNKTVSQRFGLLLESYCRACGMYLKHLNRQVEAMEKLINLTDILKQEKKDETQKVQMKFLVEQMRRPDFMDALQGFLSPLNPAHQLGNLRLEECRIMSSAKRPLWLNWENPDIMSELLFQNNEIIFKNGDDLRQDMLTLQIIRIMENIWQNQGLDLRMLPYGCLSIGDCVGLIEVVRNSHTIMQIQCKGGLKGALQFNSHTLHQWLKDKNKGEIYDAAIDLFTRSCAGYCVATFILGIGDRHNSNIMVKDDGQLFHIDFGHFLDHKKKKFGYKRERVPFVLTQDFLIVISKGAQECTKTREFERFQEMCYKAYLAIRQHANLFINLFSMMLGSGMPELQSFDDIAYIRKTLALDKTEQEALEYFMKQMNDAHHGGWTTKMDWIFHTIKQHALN

Series 1
Target: OGT, full length, His-tagged (human)
Technique: phage display, sequencing
Sample: in vitro
Concentration: 1 µg OGT
Notes: single substitutions, 15-mer displayed peptide, unchanged parent 6.14
Baseline: input library
Reading: higher = stronger binding
Parent: peptide; VAYPNSYMPKYQIST; partner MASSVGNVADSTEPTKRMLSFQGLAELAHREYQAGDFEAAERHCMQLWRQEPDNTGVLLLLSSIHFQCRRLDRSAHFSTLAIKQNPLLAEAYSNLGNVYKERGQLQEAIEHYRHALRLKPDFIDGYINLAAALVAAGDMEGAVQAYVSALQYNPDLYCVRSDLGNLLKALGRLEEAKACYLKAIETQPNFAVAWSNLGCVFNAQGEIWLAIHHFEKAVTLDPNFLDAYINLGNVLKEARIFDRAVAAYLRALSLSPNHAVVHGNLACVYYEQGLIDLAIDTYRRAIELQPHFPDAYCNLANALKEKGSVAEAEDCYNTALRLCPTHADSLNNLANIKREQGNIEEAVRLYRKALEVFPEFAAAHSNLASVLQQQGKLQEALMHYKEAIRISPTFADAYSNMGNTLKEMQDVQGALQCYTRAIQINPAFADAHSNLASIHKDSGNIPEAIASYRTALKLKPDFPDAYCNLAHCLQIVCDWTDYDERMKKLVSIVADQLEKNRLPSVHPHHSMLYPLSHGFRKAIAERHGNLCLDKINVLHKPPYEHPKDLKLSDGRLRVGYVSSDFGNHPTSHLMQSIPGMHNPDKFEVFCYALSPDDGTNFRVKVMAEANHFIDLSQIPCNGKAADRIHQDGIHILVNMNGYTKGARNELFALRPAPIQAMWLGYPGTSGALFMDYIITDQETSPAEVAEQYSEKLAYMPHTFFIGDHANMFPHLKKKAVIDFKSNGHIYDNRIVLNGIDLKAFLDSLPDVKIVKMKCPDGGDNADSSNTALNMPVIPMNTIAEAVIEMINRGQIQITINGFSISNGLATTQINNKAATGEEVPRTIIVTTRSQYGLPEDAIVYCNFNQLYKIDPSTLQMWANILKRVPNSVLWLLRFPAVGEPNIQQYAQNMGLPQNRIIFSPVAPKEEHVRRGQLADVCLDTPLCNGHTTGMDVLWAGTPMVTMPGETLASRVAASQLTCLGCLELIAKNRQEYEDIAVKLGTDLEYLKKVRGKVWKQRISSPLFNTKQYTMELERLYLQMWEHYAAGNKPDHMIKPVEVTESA
| Variant | fold enrichment [fold] |
| --- | --- |
| VAYPNSYMPKYQISE [T15E] | 0.829 |
| VAYFNSYMPKYQIST [P4F] | 7.61 |
| VAYPNSYQPKYQIST [M8Q] | 0.901 |
| VAYPNDYMPKYQIST [S6D] | 6.83 |
| VAYPNSYKPKYQIST [M8K] | 1.64 |
| VAYPVSYMPKYQIST [N5V] | 4.22 |
| VAYPNSYMPKYQIKT [S14K] | 13.2 |
| VAAPNSYMPKYQIST [Y3A] | 5.53 |

Series 2
Target: vanadate, free oxyanion
Technique: microfluidic competitive inhibition
Sample: in vitro, cell-free expressed
Concentration: not given
Notes: derived from inhibition constants, unchanged parent 676 nM
Reading: lower = stronger binding
Parent: PafA, mature enzyme, eGFP fusion (Elizabethkingia meningoseptica, UniProt Q9KJX5); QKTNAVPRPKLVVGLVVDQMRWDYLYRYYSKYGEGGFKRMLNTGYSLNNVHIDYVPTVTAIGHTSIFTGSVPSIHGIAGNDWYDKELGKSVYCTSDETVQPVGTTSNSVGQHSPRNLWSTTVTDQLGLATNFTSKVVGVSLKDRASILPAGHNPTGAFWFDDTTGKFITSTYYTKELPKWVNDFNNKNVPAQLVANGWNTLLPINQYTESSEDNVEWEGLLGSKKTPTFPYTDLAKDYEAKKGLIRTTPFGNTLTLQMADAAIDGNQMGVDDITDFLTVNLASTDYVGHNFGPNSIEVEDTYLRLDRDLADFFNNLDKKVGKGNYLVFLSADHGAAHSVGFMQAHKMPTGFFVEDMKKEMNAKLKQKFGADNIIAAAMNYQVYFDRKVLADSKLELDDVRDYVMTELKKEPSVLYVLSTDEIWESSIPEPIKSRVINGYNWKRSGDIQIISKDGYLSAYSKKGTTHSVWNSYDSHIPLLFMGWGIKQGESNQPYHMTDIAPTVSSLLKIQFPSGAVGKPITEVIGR
| Variant | oxyanion analog dissociation constant |
| --- | --- |
| M258V | 1060 nM |
| V320G | 613 nM |
| G292A | 606 nM |
| A5V | 593 nM |
| M347V | 684 nM |
| S425G | 603 nM |
| S211G | 629 nM |
| G340V | 734 nM |

Series 3
Compound: CNC(=O)c1ccc(-c2cnn3ccc(C(=O)N(C)c4ccc(Cl)c(C(=O)O)c4)cc23)cc1
| target | test | IC50 [µM] |
| --- | --- | --- |
| human phosphodiesterase 3 | enzyme activity | > 30 |
| Sodium-dependent dopamine transporter (SLC6A3, Homo sapiens, UniProt Q01959) | cell-free assay | > 30 |
| Prostaglandin G/H synthase 2 (PTGS2, Homo sapiens, UniProt P35354) | cell-free assay, inhibitor | > 30 |
| Estrogen receptor (ESR1, Homo sapiens, UniProt P03372) | cell-free assay | > 30 |

Series 4
Structure (SMILES): N#CC1(c2ccccn2)CCN(Cc2cc(C(=O)O)c(=O)n3ccccc23)CC1
Concentration: 1 µM
| target | test | remaining binding [%] |
| --- | --- | --- |
| Insulin receptor-related protein (INSRR, Homo sapiens, UniProt P14616) | cell-free assay, competition with immobilised ligand | 97 |
| Casein kinase I isoform alpha-like (CSNK1A1L, Homo sapiens, UniProt Q8N752) | cell-free assay, competition with immobilised ligand | 100 |
| Serine/threonine-protein kinase MRCK alpha (CDC42BPA, Homo sapiens, UniProt Q5VT25) | cell-free assay, competition with immobilised ligand | 100 |
| Bone morphogenetic protein receptor type-1A (BMPR1A, Homo sapiens, UniProt P36894) | binding, competition with immobilised ligand | 97 |
| Dual serine/threonine and tyrosine protein kinase (DSTYK, Homo sapiens, UniProt Q6XUX3) | cell-free assay, competition with immobilised ligand | 75 |
| Serine/threonine-protein kinase SBK1 (SBK1, Homo sapiens, UniProt Q52WX2) | cell-free assay, competition with immobilised ligand | 83 |
| Myosin-IIIb (MYO3B, Homo sapiens, UniProt Q8WXR4) | binding, competition with immobilised ligand | 100 |
| Protein-tyrosine kinase 6 (PTK6, Homo sapiens, UniProt Q13882) | cell-free assay, competition with immobilised ligand | 100 |
| Dual specificity mitogen-activated protein kinase kinase 3 (MAP2K3, Homo sapiens, UniProt P46734) | cell-free assay, competition with immobilised ligand | 73 |
| cAMP-dependent protein kinase catalytic subunit beta (PRKACB, Homo sapiens, UniProt P22694) | cell-free assay, competition with immobilised ligand | 92 |
| Serine/threonine-protein kinase MRCK gamma (CDC42BPG, Homo sapiens, UniProt Q6DT37) | competition binding | 100 |
| Mitogen-activated protein kinase kinase kinase kinase 5 (MAP4K5, Homo sapiens, UniProt Q9Y4K4) | cell-free assay, competition with immobilised ligand | 87 |
| Serine/threonine-protein kinase LATS1 (LATS1, Homo sapiens, UniProt O95835) | cell-free assay, competition with immobilised ligand | 100 |
| Phosphatidylinositol 4,5-bisphosphate 3-kinase catalytic subunit alpha isoform (PIK3CA, Homo sapiens, UniProt P42336, Q546K) | cell-free assay, competition with immobilised ligand | 58 |
| Mitogen-activated protein kinase kinase kinase 6 (MAP3K6, Homo sapiens, UniProt O95382) | cell-free assay, competition with immobilised ligand | 100 |
| Cyclin-dependent kinase 7 (CDK7, Homo sapiens, UniProt P50613) | cell-free assay, competition with immobilised ligand | 58 |
| Proto-oncogene tyrosine-protein kinase receptor Ret (RET, Homo sapiens, UniProt P07949, V804M) | cell-free assay, competition with immobilised ligand | 92 |
| Phosphatidylinositol 3-kinase C2 domain-containing subunit gamma (PIK3C2G, Homo sapiens, UniProt O75747) | cell-free assay, competition with immobilised ligand | 97 |

For quick reference, copied from above (series 4):
| target | test | remaining binding [%] |
| --- | --- | --- |
| Casein kinase I isoform alpha-like (CSNK1A1L, Homo sapiens, UniProt Q8N752) | cell-free assay, competition with immobilised ligand | 100 |
| Serine/threonine-protein kinase MRCK alpha (CDC42BPA, Homo sapiens, UniProt Q5VT25) | cell-free assay, competition with immobilised ligand | 100 |
| Bone morphogenetic protein receptor type-1A (BMPR1A, Homo sapiens, UniProt P36894) | binding, competition with immobilised ligand | 97 |
| Dual serine/threonine and tyrosine protein kinase (DSTYK, Homo sapiens, UniProt Q6XUX3) | cell-free assay, competition with immobilised ligand | 75 |
| Serine/threonine-protein kinase SBK1 (SBK1, Homo sapiens, UniProt Q52WX2) | cell-free assay, competition with immobilised ligand | 83 |
| Myosin-IIIb (MYO3B, Homo sapiens, UniProt Q8WXR4) | binding, competition with immobilised ligand | 100 |
